Published values gathered from unrelated publications.
Parts stem from different laboratories: compare values within a part only. Substitutions count along the parent as printed.

Sample 1
Target: Fragile X messenger ribonucleoprotein 1, C-terminal low-complexity region (Fmr1, Mus musculus, UniProt P35922)
Technique: RNA Bind-n-Seq
Molecule type: RNA
Medium: in vitro
Concentration: 200 nM
Notes: whole 134-nt RNA, ends assumed
Added: 150 mM LiCl
Reference: input library
Direction: higher = stronger binding
Each molecule: 7-deaza-guanosine replaces G
Constant ends, left off below: GGGAGUUCUACAGUCCGACGAUC … UGGAAUUCUCGGGUGUCAAGG
The log2 enrichment of `CACAGACAACACGCACCCACACAGACACAGAGGGAAGGGGUUGGGAUGGGGACAGGGUGCAGAGCAGGGCGGGGUAGGACCCCAGCCCCU` is reported as 0.247.
The log2 enrichment of `ACCAUGCAGGUGGGCAUCUUUGGGAAGUUGGGCAAGGGGGGGAUAGGGAGGGGGGUAACACUUUGGGAACAGGUGGUCCCAGGUCGUUUC` is reported as 1.59.
`AGUCCUGUGCUACACAUCGUAUGUACCGAAUCGGGGAAAAGGGGAAAAGGGAAAAGGAAAGUAUUAUGUUACGCCGUUCGGAUCUGCACU` has a log2 enrichment of -0.921.
With `GUCCUGUGCUACACAUCGUAUGUACCGAAUCGGUUUUUUUGGUUUUUGGAAAAAAAGGAAAGUAUUAUGUUACGCCGUUCGGAUCUGCAC` the log2 enrichment was -2.3.
`UAACUUUAGAGGAGGAUCUGAUGGAUAUGGCAGUGGACGUGGAUUUGGGGAUGGCUAUAAUGGGUAUGGAGGAGGACCAGGAGGUGGCAA` has a log2 enrichment of 0.741.
`CACAGACAACACGCACCCACACAGACACAGAGGGAAGGGGUUGGGAUGGGGACAGGGUGCACAGCAGGGCGGGUUAGGACCCCAGCCCCU` has a log2 enrichment of 0.901.
For `AGUCCUGUGCUACACAUCGUAUGUACCGAAUCGGUUUUUGGUUUUUUUGGAAAAAGGAAAGUAUUAUGUUACGCCGUUCGGAUCUGCACU`, the log2 enrichment was -2.46.

Sample 2
Target: CCNF, cyclin fold, Cln2 fusion (human)
Technique: yeast growth competition, sequencing
Medium: yeast
Notes: strong parent motif
Reference: not given
Direction: higher = stronger binding
Starting sequence: BRCA2 docking peptide (human); PSIKRNLLNEFDR; partner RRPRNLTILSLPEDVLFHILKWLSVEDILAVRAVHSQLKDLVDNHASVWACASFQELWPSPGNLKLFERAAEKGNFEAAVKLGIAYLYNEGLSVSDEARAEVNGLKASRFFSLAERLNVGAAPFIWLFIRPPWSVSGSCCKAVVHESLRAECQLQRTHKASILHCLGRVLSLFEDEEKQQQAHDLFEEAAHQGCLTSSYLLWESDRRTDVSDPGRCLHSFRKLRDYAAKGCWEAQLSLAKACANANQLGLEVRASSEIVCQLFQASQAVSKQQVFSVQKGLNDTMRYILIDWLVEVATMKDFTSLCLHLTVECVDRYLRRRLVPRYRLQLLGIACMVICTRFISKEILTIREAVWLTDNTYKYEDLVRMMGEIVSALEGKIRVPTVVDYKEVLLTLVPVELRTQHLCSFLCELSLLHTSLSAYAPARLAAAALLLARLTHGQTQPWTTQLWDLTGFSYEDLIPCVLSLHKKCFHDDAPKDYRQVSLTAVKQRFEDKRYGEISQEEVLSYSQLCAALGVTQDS
`R5K` — result for “normalised enrichment score”: 1.29.
`P1D`: “normalised enrichment score” 2.03.
`R13T`: “normalised enrichment score” 2.67.
`K4I`: “normalised enrichment score” 2.6.
Under “normalised enrichment score”, `S2Q` is recorded as 2.85.
`K4T` — result for “normalised enrichment score”: 0.861.
`I3P`: “normalised enrichment score” 1.17.

Sample 3
Target: Interferon regulatory factor 5, full length, phosphomimetic (IRF5, Homo sapiens, UniProt Q13568-2, residues 1-514, K96S/S451D/S453D/S456D/S462D)
Technique: protein-binding microarray
Molecule type: double-stranded DNA, one strand shown
Medium: in vitro
Concentration: 250 nM
Notes: 60-bp whole probe
Added: salmon DNA 0.4 mg/ml
Reference: random background probes
Direction: higher = stronger binding
Constant ends, left off below: GCCTAGCAC … GTGCTAGGTCTTGATTCGCTTGACGCTGCTG
With `TAAGGTCTCGGTCTCGGTTA` the log fluorescence was 0.573 z-score.
With `TTAGATCCCAGACTGGATTA` the log fluorescence was -0.284 z-score.
With `GACCGTTTCCTTCTCCTGAC` the log fluorescence was 0.626 z-score.
With `GACTATTTCAGTCTCGAGAC` the log fluorescence was 1.84 z-score.
With `GACGGTCTCCTATTCCTGAC` the log fluorescence was -0.115 z-score.
With `GACGGACTAGGTTTCGGGAC` the log fluorescence was 2.58 z-score.

Other studies, line by line
For `PhoQ, residues 284 288 289 292 302 303 NLAAMI`, the fold induction was 14.7 (PhoP, residues 12 14 15 18 19 TPWLV (Escherichia coli, UniProt P23836); Sort-seq, item: YFP reporter; E. coli; PhoQ-PhoP variant library, added: 10 µM Mg2+; reference: high Mg2+ state, higher = stronger signaling).

Repeated from above (sample 3):
With `GACTATTTCAGTCTCGAGAC` the log fluorescence was 1.84 z-score.
With `GACGGTCTCCTATTCCTGAC` the log fluorescence was -0.115 z-score.
With `GACGGACTAGGTTTCGGGAC` the log fluorescence was 2.58 z-score.
